Assay results gathered from unrelated publications.
Numbered parts are unrelated; each lists some results of a single study.
UniProt P36894, sequence (whole entry, looked up): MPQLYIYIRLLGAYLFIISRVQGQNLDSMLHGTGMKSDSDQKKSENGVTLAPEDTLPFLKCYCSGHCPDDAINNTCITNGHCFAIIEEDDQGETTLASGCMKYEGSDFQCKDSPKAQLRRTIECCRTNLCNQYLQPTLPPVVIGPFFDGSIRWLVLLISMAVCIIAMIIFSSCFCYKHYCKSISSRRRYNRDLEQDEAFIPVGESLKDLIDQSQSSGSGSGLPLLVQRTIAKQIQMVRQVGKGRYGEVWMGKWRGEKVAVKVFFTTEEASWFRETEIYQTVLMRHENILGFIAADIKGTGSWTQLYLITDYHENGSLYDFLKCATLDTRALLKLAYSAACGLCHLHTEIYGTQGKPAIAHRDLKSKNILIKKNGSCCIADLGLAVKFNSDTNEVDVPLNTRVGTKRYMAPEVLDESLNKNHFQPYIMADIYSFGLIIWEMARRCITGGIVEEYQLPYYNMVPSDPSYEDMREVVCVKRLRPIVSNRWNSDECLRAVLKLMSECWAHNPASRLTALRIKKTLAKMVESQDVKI
UniProt P41743, sequence (whole entry, looked up): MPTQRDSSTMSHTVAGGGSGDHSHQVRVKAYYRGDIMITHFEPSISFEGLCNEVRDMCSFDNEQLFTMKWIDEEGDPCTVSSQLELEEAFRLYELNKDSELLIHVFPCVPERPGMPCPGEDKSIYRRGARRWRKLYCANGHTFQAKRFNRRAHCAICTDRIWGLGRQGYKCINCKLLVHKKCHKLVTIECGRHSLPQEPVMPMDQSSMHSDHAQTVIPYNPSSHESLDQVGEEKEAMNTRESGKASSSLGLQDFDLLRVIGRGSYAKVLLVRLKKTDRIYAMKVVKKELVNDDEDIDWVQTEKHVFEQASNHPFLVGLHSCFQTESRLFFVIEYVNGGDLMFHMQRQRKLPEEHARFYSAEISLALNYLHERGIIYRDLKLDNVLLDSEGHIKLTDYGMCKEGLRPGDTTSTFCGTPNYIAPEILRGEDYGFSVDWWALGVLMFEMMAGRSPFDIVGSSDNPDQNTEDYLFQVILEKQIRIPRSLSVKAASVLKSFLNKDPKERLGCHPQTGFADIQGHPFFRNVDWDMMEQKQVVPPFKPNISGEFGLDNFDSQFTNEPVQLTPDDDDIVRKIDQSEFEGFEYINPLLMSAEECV
UniProt P57078, sequence (whole entry, looked up): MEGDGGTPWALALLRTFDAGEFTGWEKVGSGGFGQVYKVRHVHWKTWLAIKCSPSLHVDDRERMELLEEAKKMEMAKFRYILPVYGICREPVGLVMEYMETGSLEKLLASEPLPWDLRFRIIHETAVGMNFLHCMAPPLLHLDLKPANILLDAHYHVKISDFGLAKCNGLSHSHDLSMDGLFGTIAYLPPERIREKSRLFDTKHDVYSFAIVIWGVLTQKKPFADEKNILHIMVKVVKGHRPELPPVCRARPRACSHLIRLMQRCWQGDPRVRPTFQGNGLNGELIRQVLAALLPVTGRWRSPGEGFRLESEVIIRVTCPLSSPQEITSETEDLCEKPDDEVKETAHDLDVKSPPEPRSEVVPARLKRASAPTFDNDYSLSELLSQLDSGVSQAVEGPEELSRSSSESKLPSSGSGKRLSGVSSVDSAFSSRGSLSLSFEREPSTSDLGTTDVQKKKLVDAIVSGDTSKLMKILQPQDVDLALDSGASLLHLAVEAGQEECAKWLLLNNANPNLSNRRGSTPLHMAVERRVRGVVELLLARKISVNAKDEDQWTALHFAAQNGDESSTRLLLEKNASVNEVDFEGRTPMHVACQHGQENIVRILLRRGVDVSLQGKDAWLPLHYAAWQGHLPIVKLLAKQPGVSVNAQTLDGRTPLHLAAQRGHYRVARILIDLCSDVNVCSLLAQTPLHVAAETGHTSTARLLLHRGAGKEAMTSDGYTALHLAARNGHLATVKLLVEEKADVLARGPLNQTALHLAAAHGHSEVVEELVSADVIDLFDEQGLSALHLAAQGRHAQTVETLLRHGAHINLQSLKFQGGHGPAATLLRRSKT
UniProt P49840, sequence (whole entry, looked up): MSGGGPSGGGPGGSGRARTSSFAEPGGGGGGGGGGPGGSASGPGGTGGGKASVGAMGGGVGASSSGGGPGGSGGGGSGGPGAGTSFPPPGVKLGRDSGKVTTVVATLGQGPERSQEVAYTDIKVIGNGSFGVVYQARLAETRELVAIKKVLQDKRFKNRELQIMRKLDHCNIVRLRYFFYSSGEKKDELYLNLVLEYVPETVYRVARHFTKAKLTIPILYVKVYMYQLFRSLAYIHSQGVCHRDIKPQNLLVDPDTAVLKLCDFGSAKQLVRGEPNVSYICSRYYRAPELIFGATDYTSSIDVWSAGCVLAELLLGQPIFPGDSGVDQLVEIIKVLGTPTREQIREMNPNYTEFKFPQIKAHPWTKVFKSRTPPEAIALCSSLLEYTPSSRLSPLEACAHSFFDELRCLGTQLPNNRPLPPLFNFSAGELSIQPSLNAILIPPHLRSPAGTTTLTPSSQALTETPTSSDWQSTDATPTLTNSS

Set 1
Target: DNA polymerase theta, ATPase domain (POLQ, Homo sapiens, UniProt O75417)
UniProt O75417, sequence (whole entry, unmodified, looked up): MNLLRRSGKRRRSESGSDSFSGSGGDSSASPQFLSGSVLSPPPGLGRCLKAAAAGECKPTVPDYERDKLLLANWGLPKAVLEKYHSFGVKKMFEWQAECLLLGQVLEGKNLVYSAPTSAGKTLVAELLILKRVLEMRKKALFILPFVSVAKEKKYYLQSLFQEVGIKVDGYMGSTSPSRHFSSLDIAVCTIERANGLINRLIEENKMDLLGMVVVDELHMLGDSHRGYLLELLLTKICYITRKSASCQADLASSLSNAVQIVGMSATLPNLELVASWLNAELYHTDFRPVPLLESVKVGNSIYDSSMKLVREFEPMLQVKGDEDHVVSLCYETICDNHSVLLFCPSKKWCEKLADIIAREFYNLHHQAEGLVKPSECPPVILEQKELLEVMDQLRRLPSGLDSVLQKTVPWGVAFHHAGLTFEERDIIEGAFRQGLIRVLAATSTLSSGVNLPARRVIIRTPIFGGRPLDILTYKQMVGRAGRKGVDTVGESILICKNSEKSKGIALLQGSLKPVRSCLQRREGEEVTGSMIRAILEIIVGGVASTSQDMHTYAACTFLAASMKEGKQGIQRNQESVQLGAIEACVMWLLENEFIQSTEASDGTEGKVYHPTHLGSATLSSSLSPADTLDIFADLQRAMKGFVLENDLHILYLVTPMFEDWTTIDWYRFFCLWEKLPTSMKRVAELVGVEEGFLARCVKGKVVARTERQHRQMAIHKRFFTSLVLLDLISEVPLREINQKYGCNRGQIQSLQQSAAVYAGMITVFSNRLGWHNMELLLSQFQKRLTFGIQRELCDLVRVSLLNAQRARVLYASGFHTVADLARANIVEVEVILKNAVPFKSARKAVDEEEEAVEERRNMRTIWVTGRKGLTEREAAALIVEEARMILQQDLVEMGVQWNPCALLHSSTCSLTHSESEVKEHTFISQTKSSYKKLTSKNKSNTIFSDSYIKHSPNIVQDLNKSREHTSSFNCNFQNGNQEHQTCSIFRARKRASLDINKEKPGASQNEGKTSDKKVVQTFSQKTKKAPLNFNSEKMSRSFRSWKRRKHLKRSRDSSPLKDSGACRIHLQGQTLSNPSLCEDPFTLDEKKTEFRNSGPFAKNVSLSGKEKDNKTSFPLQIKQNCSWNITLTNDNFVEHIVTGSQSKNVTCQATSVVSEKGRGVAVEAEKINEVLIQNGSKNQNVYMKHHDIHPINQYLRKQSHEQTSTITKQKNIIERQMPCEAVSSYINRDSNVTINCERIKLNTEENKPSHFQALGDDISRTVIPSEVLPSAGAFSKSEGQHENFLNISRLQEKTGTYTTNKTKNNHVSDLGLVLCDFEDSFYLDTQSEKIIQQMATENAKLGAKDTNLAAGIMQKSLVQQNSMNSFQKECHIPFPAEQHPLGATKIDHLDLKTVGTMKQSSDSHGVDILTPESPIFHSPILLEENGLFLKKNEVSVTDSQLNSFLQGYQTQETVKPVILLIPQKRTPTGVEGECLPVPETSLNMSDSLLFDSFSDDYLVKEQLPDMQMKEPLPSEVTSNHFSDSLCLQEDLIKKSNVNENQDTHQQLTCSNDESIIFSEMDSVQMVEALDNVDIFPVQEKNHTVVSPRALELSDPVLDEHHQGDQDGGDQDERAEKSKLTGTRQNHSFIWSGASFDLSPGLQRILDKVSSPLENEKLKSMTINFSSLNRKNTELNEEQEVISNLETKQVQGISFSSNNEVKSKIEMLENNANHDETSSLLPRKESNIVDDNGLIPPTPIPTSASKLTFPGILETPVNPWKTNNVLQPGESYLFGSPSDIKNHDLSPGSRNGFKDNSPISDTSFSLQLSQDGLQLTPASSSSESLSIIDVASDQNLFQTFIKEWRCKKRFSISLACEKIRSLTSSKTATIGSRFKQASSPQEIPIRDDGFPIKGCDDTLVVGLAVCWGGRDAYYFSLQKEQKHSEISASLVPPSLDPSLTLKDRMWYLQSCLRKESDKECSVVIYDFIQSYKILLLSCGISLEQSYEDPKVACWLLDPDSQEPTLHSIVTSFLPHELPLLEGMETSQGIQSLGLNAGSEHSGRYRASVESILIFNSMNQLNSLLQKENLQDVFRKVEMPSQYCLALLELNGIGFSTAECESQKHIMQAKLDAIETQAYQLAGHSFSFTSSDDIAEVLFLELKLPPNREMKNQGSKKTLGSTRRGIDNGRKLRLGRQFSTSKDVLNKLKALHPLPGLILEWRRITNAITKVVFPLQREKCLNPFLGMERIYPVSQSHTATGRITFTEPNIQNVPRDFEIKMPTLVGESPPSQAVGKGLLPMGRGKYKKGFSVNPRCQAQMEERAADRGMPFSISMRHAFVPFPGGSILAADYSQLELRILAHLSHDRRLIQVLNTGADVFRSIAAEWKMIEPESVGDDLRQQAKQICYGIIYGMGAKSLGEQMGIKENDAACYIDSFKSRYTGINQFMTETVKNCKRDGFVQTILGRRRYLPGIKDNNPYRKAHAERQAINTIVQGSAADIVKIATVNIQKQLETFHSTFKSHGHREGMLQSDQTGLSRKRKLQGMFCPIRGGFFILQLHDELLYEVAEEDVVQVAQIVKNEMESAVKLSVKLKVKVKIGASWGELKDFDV
Effect on: enzyme activity
Action: inhibitor
Tested at: 77 µM
Baseline: untreated
SMILES	remaining activity
O=C(O)c1ccccc1C(=O)Nc1ccc(S(=O)(=O)Nc2nccs2)cc1	96.9%
CN1CC(=O)N2[C@H](c3ccc4c(c3)OCO4)c3[nH]c4ccccc4c3C[C@@H]2C1=O	102%
C[C@]12CC[C@H](O)CC1=CC[C@@H]1[C@@H]2CC[C@]2(C)C(n3cnc4ccccc43)=CC[C@@H]12	97.7%
CCCCOc1ccc(C(=O)Nc2ccc(F)cc2F)cc1	96.4%
O=C(c1ccccc1)c1ccc2nc(NC(=O)c3csc(C4CCN(c5ncnc6ccsc56)CC4)n3)[nH]c2c1	97.1%
Oc1ccc(C2CNCCc3c2cc(O)c(O)c3Cl)cc1 (stereo not drawn)	95.9%
O=S(=O)(c1ccccc1)c1cnc2c(N3CCNCC3)cccc2c1	101%
CC1(C)[C@@H](O[C@H]2O[C@H](C(=O)O)[C@@H](O)[C@H](O)[C@H]2O[C@@H]2O[C@H](C(=O)O)[C@@H](O)[C@H](O)[C@H]2O)CC[C@]2(C)[C@H]3C(=O)C=C4[C@@H]5C[C@@](C)(C(=O)O)CC[C@]5(C)CC[C@@]4(C)[C@]3(C)CC[C@@H]12	96.2%
C[C@H](CCC(=O)O)[C@H]1CC[C@H]2[C@@H]3C(=O)C[C@@H]4CC(=O)CC[C@]4(C)[C@H]3CC(=O)[C@]12C	95%
CCOC(=O)c1[nH]c2cc(Cl)ccc2c1C(C(=O)NC(C)(C)C)N(C=O)Cc1ccc(Cl)cc1 (stereo not drawn)	97.8%
CCOC(=O)[C@H]1O[C@@H]1C(=O)N[C@@H](CC(C)C)C(=O)NCCC(C)C	90.9%
COC(=O)C1=CO[C@@H](O[C@@H]2O[C@H](CO)[C@@H](O)[C@H](O)[C@H]2O)[C@@H]2C(CO)=CC[C@H]12	97.1%
CC(C)(C)OC(=O)N[C@H]1CCCCC/C=C\[C@@H]2C[C@@]2(C(=O)NS(=O)(=O)C2CC2)NC(=O)[C@@H]2C[C@@H](OC(=O)N3Cc4cccc(F)c4C3)CN2C1=O	92.6%
CC(C)(C)c1cc(C(C)(C)C)c(NC(=O)c2c[nH]c3ccccc3c2=O)cc1O	101%
C[C@]12CC[C@@H]3c4ccc(OC(=O)c5ccccc5)cc4CC[C@H]3[C@@H]1CC[C@@H]2O	104%
COc1ccc(-c2cc(=O)c3c(O)cc(O[C@@H]4O[C@H](CO[C@@H]5O[C@@H](C)[C@H](O)[C@@H](O)[C@H]5O)[C@@H](O)[C@H](O)[C@H]4O)cc3o2)cc1O	96.4%
COc1cc2c(cc1OC)-c1c/c(=N\c3c(C)cc(C)cc3C)n(C)c(=O)n1CC2	101%
COc1cc2c(cc1OC)[C@@H]1Cc3ccc(OC)c(OC)c3CN1CC2	95%
C[C@H]1[C@H]2CC[C@H]3[C@@H]4CC=C5C[C@@H](N(C)C)CC[C@]5(C)[C@H]4CC[C@]23CN1C	93.2%

Set 2
SMILES: CCC(=O)N[C@H]1CC[C@@H](C(=O)N(C)c2ccc(-c3nc4ccccc4o3)cc2)C1
Effect on: cell-free assay
Technique: competition with immobilised ligand
Tested at: 1 µM
target	remaining binding [%]
PRKCI (Homo sapiens, UniProt P41743)	92
NEK3 (Homo sapiens, UniProt P51956)	66
NEK9 (Homo sapiens, UniProt Q8TD19)	99
PIK3CA (Homo sapiens, UniProt P42336)	94
WNK4 (Homo sapiens, UniProt Q96J92)	100
ROCK1 (Homo sapiens, UniProt Q13464)	100
GSK3A (Homo sapiens, UniProt P49840)	100
PRKCQ (Homo sapiens, UniProt Q04759)	84
MAP3K3 (Homo sapiens, UniProt Q99759)	89
PIK3CG (Homo sapiens, UniProt P48736)	99
CDK5 (Homo sapiens, UniProt Q00535)	87
EPHB1 (Homo sapiens, UniProt P54762)	100
RIPK4 (Homo sapiens, UniProt P57078)	50
EPHB3 (Homo sapiens, UniProt P54753)	76
HCK (Homo sapiens, UniProt P08631)	100
CILK1 (Homo sapiens, UniProt Q9UPZ9)	70
MET (Homo sapiens, UniProt P08581, M1250T)	92
WNK1 (Homo sapiens, UniProt Q9H4A3)	100
CDK15 (Homo sapiens, UniProt Q96Q40)	89
CLK2 (Homo sapiens, UniProt P49760)	95

Set 3
Target: Serine/threonine-protein kinase Sgk3 (SGK3, Homo sapiens, UniProt Q96BR1)
Effect on: enzyme activity
Action: inhibitor
Tested at: 0.5 µM
Baseline: control
Target sequence (Q96BR1 1-496): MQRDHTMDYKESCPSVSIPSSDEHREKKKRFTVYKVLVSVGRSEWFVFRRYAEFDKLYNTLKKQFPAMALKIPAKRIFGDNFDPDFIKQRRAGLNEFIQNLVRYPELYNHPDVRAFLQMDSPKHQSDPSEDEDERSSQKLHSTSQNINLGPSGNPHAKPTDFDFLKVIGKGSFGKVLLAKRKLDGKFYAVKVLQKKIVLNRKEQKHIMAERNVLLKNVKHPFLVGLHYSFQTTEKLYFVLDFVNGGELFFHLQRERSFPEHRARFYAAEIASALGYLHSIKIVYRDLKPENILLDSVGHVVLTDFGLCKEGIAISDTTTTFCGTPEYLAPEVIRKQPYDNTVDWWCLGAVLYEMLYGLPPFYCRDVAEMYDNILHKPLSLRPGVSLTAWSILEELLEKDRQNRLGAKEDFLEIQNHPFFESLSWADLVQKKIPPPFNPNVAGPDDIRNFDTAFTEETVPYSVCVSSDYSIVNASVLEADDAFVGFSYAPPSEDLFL
Compound	remaining activity
N#C/C(=C\c1ccc(O)c(O)c1)C(=O)NCc1ccccc1	102%
COc1cc2ncnc(Nc3ccc(O)c(Br)c3)c2cc1OC	94.5%
O=C1C(Cl)=C(N2C(=O)CCC2=O)C(=O)c2ccccc21	103%
c1ccc(-c2[nH]ncc2-c2ccnc3ccccc23)nc1	97.4%
Cc1nc2cc3nc(-c4cccs4)cnc3cc2n1C	105%
O=C(NC(NC(=S)Nc1ccc(F)c([N+](=O)[O-])c1)C(Cl)(Cl)Cl)C(c1ccccc1)c1ccccc1 (stereo not drawn)	85.8%
CCN(CC)C(=O)c1ccc(Nc2nc(OCC3CCCCC3)c3[nH]cnc3n2)cc1	97.2%
N#Cc1c(NC(=O)c2cccc3ccccc23)sc2c1CCCC2	107%
Cn1nc2c3c(cccc31)C(=O)c1ccccc1-2	107%
CCN(CC)CCNC(=O)c1c(C)[nH]c(/C=C2\C(=O)Nc3ccc(Cl)cc32)c1C	103%
Cc1cc2ncc(-c3ccccc3)nc2cc1C	101%
Cc1cn(-c2cc(NC(=O)c3ccc(C)c(Nc4nccc(-c5cccnc5)n4)c3)cc(C(F)(F)F)c2)cn1	102%
CN(C)C[C@H]1CCn2c(c(C3=C(c4cn(C)c5ccccc45)C(=O)NC3=O)c3ccccc32)C1	95%
O=C(Nc1cccc(Nc2nccc(Nc3cccc(C(F)(F)F)c3)n2)c1)C1CC1	111%
O=C1c2ccccc2-c2n[nH]c3cccc1c23	94.6%
Ic1cccc(CSc2nnc(-c3ccncc3)o2)c1	98.5%
COc1cc2c(cc1OC)-c1[nH]nc(Nc3cccc(F)c3)c1C2	92.7%
O=c1cc(-c2cccc3c2Sc2ccccc2S3)oc(N2CCOCC2)c1	98.6%
CN([C@@H](Cc1ccc(OS(=O)(=O)c2cccc3cnccc23)cc1)C(=O)N1CCN(c2ccccc2)CC1)S(=O)(=O)c1cccc2cnccc12	104%
Nc1cccc(-c2cc3c(Oc4cccc(O)c4)ncnc3[nH]2)c1	117%
COc1cc2ncnc(Nc3cccc(Cl)c3)c2cc1OC	90.9%

Set 4
SMILES: Cc1nc(Nc2ncc(C(=O)Nc3c(C)cccc3Cl)s2)cc(N2CCN(CCO)CC2)n1
Action: inhibitor
target	tested at	inhibition
BRSK1 (Homo sapiens, UniProt Q8TDC3)	10 µM	< 50%
IKBKE (Homo sapiens, UniProt Q14164)	10 µM	< 50%
CDK2 (Homo sapiens, UniProt P24941)	10 µM	< 50%
STK10 (Homo sapiens, UniProt O94804)	10 µM	88%
MAP2K1 (Homo sapiens, UniProt Q02750)	1 µM	< 50%
ULK1 (Homo sapiens, UniProt O75385)	10 µM	< 50%
BMP2K (Homo sapiens, UniProt Q9NSY1)	10 µM	< 50%
PIK3C2B (Homo sapiens, UniProt O00750)	1 µM	< 50%
ROS1 (Homo sapiens, UniProt P08922)	10 µM	< 50%
Insulin receptor (INSR, Homo sapiens, UniProt P06213)	10 µM	< 50%
GAK (Homo sapiens, UniProt O14976)	10 µM	99%
TAOK3 (Homo sapiens, UniProt Q9H2K8)	10 µM	< 50%
BMPR1A (Homo sapiens, UniProt P36894)	10 µM	76%
CSNK1G1 (Homo sapiens, UniProt Q9HCP0)	10 µM	< 50%
STK11 (Homo sapiens, UniProt Q15831)	10 µM	< 50%

A few entries again (set 2):
target	remaining binding [%]
NEK3 (Homo sapiens, UniProt P51956)	66
NEK9 (Homo sapiens, UniProt Q8TD19)	99
PIK3CA (Homo sapiens, UniProt P42336)	94
WNK4 (Homo sapiens, UniProt Q96J92)	100
ROCK1 (Homo sapiens, UniProt Q13464)	100
GSK3A (Homo sapiens, UniProt P49840)	100
PRKCQ (Homo sapiens, UniProt Q04759)	84
MAP3K3 (Homo sapiens, UniProt Q99759)	89
PIK3CG (Homo sapiens, UniProt P48736)	99
CDK5 (Homo sapiens, UniProt Q00535)	87
EPHB1 (Homo sapiens, UniProt P54762)	100
RIPK4 (Homo sapiens, UniProt P57078)	50
